Experimental data of several laboratories.
Compare with care: the assays were run in different laboratories.
Cell line: MDA-MB-468

SMILES | assay | conditions | IC50
CC(C)Cn1cc(-c2ccnc(Nc3ccc(C(=O)Nc4ccccc4N)cc3)n2)nn1 | cell growth or viability, SRB | 72 h | 2.36 µM
C#Cc1cccc(Nc2ncnc3cc(OCCOC)c(OCCOC)cc23)c1 | cell growth or viability, trypan blue | – | > 20 µM
CCCCCCCCC=CCCCCCCCC(=O)OC(COC(=O)C(C)c1ccc(CC(C)C)cc1)COP(=O)([O-])OCC[N+](C)(C)C (centres unmarked) | cell growth or viability, SRB | 72 h | 101 to 107 µM
c1ccc(-c2nc(-c3cccnc3)[nH]c2-c2ccccc2)cc1 | cell growth or viability, SRB | 24 h | 94.6 µM
Cc1c(C)c(C)[c-](C)c1C.[C-]#[O+].[C-]#[O+].[C-]#[O+].[Cl-].[Cl-].[Cl-].[Ir+3].[Re+].c1cnc(-c2ncccn2)nc1 | cell growth or viability, MTT | 48 h | 24.1 µM
CCCCCCCCC=CCCCCCCCC(=O)OC(COC(=O)Cc1c(C)n(C(=O)c2ccc(Cl)cc2)c2ccc(OC)cc12)COP(=O)([O-])OCC[N+](C)(C)C (centres unmarked) | cell growth or viability, SRB | 72 h | 67.5 µM
CCCCCCCCCCCCCCn1c(-c2cccnc2)nc(-c2ccc(C)cc2)c1-c1ccc(C)cc1 | cell growth or viability, SRB | 24 h | > 100 µM
CC(C)Cn1cc(-c2nc(Nc3ccc(OCCCCCCC(=O)NO)cc3)ncc2F)nn1 | cell growth or viability, SRB | 72 h | 2.33 µM
CCCn1c(-c2cccnc2)nc(-c2ccc(C)cc2)c1-c1ccc(C)cc1 | cell growth or viability, SRB | 24 h | 97.9 µM
O=C(CCCCCCOc1ccc(Nc2ncc(F)c(-c3cn(C4CCCCC4)nn3)n2)cc1)NO | cell growth or viability, SRB | 72 h | 2.63 µM
Cc1ccc(C(C)C)cc1.[C-]#[O+].[C-]#[O+].[C-]#[O+].[Cl-].[Cl-].[Cl-].[Re+].[Ru+2].c1cnc(-c2ncccn2)nc1 | cell growth or viability, MTT | 48 h | 111 µM
Nc1ccccc1NC(=O)c1ccc(Nc2nccc(-c3cn(C4CCCCC4)nn3)n2)cc1 | cell growth or viability, SRB | 72 h | 3.27 µM
CCCCCCCCn1c(-c2cccnc2)nc(-c2ccccc2)c1-c1ccccc1 | cell growth or viability, SRB | 24 h | 67 µM
N=C(N)NCCC[C@H](NC(=O)[C@H](Cc1c[nH]c2ccccc12)NC(=O)[C@H](CCC(N)=O)NC(=O)[C@H](Cc1c[nH]c2ccccc12)NC(=O)[C@H](CCCNC(=N)N)NC(=O)[C@H](Cc1c[nH]c2ccccc12)NC(=O)[C@H](CCC(N)=O)NC(=O)[C@H](Cc1c[nH]c2ccccc12)NC(=O)[C@@H](N)CCCNC(=N)N)C(N)=O | MTT | up to 48 h | 75 µg/mL

A few entries again:
SMILES | assay | conditions | IC50
Cc1ccc(C(C)C)cc1.[C-]#[O+].[C-]#[O+].[C-]#[O+].[Cl-].[Cl-].[Cl-].[Re+].[Ru+2].c1cnc(-c2ncccn2)nc1 | cell growth or viability, MTT | 48 h | 111 µM
Nc1ccccc1NC(=O)c1ccc(Nc2nccc(-c3cn(C4CCCCC4)nn3)n2)cc1 | cell growth or viability, SRB | 72 h | 3.27 µM
